Results collected from several papers.
Each line is one published result; not all experiments were run side by side. pEC50, pIC50: −log10 of the molar value.
Cell line: SW-620

C#C[C@@]1(O)[C@@H](CO)O[C@@H](n2cc(Br)c3c(N)ncnc32)[C@@H]1O — TGI (SRB; NCI-60 screen): > 100 µM
O=C1NCCc2[nH]c(-c3ccncc3)cc21 — pIC50 (MTS; colon cancer): 5.41
CCOC(=O)CSc1nc(-c2ccc(Cl)cc2)c2c(NC(=O)c3ccccc3)nnc-2[nH]1 — cell growth (SRB; 10 µM, NCI60 single-dose screen, colon cancer; relative to: untreated): 96.4%
Cn1cncc1C1=CN(c2ncnc3[nH]cnc23)CCS1 — TGI (colon cancer): 40.7 µM
CCOc1ccc(-c2nc3cc(-c4nc5cc(N6CCN(C)CC6)ccc5[nH]4)ccc3[nH]2)cc1OCC — growth percent (SRB; 10 µM, 48 h): 0.49%
Nc1ncnc2c1ncn2C1CCCC1 — decrease of IP6 level (100 µM, 96 h; relative to: DMSO): ~4 fold
CCCCN1CCN(c2ccc3nc(-c4ccc5nc(-c6cc(OC)ccc6OC)[nH]c5c4)[nH]c3c2)CC1 — growth percent (SRB; 10 µM, 48 h): 105%
O=P1(C2CCCCC2)CCCCC1 — late apoptotic cells (Annexin V-FITC/PI flow cytometry; IC50, 72 h): 4.55%
Cc1cc(=O)[nH]c(=O)n1Cc1cn(-c2cc3ccccc3oc2=O)nn1 — growth percentage (NCI60 single-dose screen; 10 µM): 99.3%
COc1cccc2c1C(=O)c1c(O)c3c(c(O)c1C2=O)C[C@@](O)(C(=O)CO)C[C@@H]3O[C@H]1C[C@H](N)[C@H](O)[C@H](C)O1 — selectivity index (MTT; 72 h; relative to: IC50 HaCaT over IC50 SW-620): 1
C#C[C@@]1(O)[C@@H](CO)O[C@@H](n2cc(I)c3c(N)ncnc32)[C@@H]1O — TGI (SRB; NCI-60 screen): > 100 µM
O=C1NC(c2ccccc2)(c2ccccc2)C(=O)N1Cc1cn(-c2cc3ccccc3oc2=O)nn1 — growth percentage (NCI60 single-dose screen; 10 µM): 96.8%
S=C([S][Au-][P+](CCCCCC[P+]([Au-][S]C(=S)n1cccn1)(c1ccccc1)c1ccccc1)(c1ccccc1)c1ccccc1)n1cccn1 — log10 TGI (cell growth, NCI-60 screen; colon cancer): > -4
CCn1cc(-c2cc(Cn3ccnc3)cc3c2CCN([C@H](c2cc(OC)ccn2)C2CC2)C3=O)c(C(F)(F)F)n1 — pEC50 (cell growth, inhibitor; 120 h): 7.55
CCN(CC)c1ccc(C=NNC(=O)CSc2nc3ccccc3c(=O)n2Cc2ccc(S(N)(=O)=O)cc2)c(O)c1 — TGI (NCI five-dose screen): > 100 µM
O=C(Nc1nnc2[nH]c(=S)[nH]c(-c3ccc(Cl)cc3)c1-2)c1ccccc1 — cell growth (SRB; 10 µM, NCI60 single-dose screen, colon cancer; relative to: untreated): 103%
CCCN1CCN(c2ccc3[nH]c(-c4ccc5[nH]c(-c6ccc(OCC)c(OCC)c6)nc5c4)nc3c2)CC1 — growth percent (SRB; 10 µM, 48 h): -65.9%
COc1cnc2cccc(N3CCc4c(cc(Cn5ccnc5C)cc4-c4cn(C)nc4C(F)(F)F)C3=O)c2c1 — pEC50 (cell growth, inhibitor; 120 h): 7.57
Cc1cc(-c2ccccc2)n(-c2nc(-c3ccc(Cl)cc3)c3c(NC(=O)c4ccccc4)nnc-3[nH]2)n1 — cell growth (SRB; 10 µM, NCI60 single-dose screen, colon cancer; relative to: untreated): 101%
CCCCN1CCN(c2ccc3[nH]c(-c4ccc5[nH]c(-c6ccc(OCC)c(OCC)c6)nc5c4)nc3c2)CC1 — growth percent (SRB; 10 µM, 48 h): -80.3%
O=C(Nc1nnc2n3c(nc(-c4ccc(Cl)cc4)c1-2)SCC3=O)c1ccccc1 — cell growth (SRB; 10 µM, NCI60 single-dose screen, colon cancer; relative to: untreated): 101%
CN1CCN(c2ccc3[nH]c(-c4ccc5[nH]c(-c6ccc(C(F)(F)F)cc6)nc5c4)nc3c2)CC1 — growth percent (SRB; 10 µM, 48 h): 1.32%
Cc1n[nH]c2nc(-c3ccc(Cl)cc3)c3c(NC(=O)c4ccccc4)nnc-3n12 — cell growth (SRB; 10 µM, NCI60 single-dose screen, colon cancer; relative to: untreated): 106%
CCCN1CCN(c2ccc3[nH]c(-c4ccc5[nH]c(-c6cc(OC)c(OC)c(OC)c6)nc5c4)nc3c2)CC1 — growth percent (SRB; 10 µM, 48 h): 75.7%
CSc1nc(-c2ccc(Cl)cc2)c2c(NC(=O)c3ccccc3)nnc-2[nH]1 — cell growth (SRB; 10 µM, NCI60 single-dose screen, colon cancer; relative to: untreated): 105%
Cc1cc(=O)[nH]c(=O)n1Cc1cn(-c2c3ccccc3nc3ccccc23)nn1 — growth percentage (NCI60 single-dose screen; 10 µM): 83.9%

Some of these lines once more:
Cc1cc(-c2ccccc2)n(-c2nc(-c3ccc(Cl)cc3)c3c(NC(=O)c4ccccc4)nnc-3[nH]2)n1 — cell growth (SRB; 10 µM, NCI60 single-dose screen, colon cancer; relative to: untreated): 101%
O=P1(C2CCCCC2)CCCCC1 — late apoptotic cells (Annexin V-FITC/PI flow cytometry; IC50, 72 h): 4.55%
